Experimental data collected from several papers.
Each line is one published result; not all experiments were run side by side.
Sequence of UniProt P45880 (whole entry, looked up): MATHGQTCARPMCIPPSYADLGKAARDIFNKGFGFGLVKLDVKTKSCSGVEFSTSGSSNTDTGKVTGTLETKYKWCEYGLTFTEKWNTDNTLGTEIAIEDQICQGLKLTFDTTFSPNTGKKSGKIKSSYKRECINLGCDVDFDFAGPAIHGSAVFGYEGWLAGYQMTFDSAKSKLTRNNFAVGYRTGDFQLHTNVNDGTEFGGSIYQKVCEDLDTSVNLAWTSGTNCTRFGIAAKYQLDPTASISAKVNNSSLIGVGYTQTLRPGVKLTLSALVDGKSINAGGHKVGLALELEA

| SMILES | tested on | assay | system | conditions | how to read | endpoint | result |
| --- | --- | --- | --- | --- | --- | --- | --- |
| Cc1ccc2[nH]c3c(c2c1)CCCC3NCCc1ccc(Br)cc1 (stereo not shown) | Staphylococcus simulans | broth microdilution | 22 |  |  | MIC | 4 µg/mL |
| CC1(C)S[C@@H]2[C@H](NC(=O)[C@H](N)c3ccccc3)C(=O)N2[C@H]1C(=O)O | Escherichia coli | broth microdilution | Keio mutant JW2142-1 |  |  | MIC | 6.25 µg/mL |
| CCCCCCCCCCCCCCCC(=O)NP(=O)(O)O | Streptococcus pneumoniae |  |  |  |  | MIC | 100 µg/mL |
| CC(C)(C)[C@]1(O)CCN2C[C@H]3c4ccccc4CCc4cccc(c43)[C@@H]2C1 | Plasmodium falciparum |  | W2 |  |  | IC50 | 2000 nM |
| O=C(NN=Cc1ccc(O)c(Br)c1)c1cccc(Br)c1 | Cryptococcus neoformans |  |  | compound alone, added: amphotericin |  | MIC | 0.3 µg/mL |
| CC1(C)SC2C(NC(=O)C(NC(=O)C3=C(O)C(Cc4ccc(F)cc4)NC3=O)c3ccccc3)C(=O)N2C1C(=O)O (stereo not shown) | Escherichia coli | broth microdilution | Keio mutant JW0146-2 | 18 h, ferric hydroxamate uptake gene |  | MIC | 25 µg/mL |
| CP(=O)(O)CCCN | Plasmodium falciparum |  | GB4 |  |  | IC50 | 3160 nM |
| N=C(N)NCCC[C@H](NC(=O)[C@H](Cc1c[nH]c2ccccc12)NC(=O)[C@H](CCCNC(=N)N)NC(=O)[C@H](Cc1c[nH]c2ccccc12)NC(=O)[C@H](Cc1c[nH]c2ccccc12)NC(=O)[C@H](Cc1c[nH]c2ccccc12)NC(=O)[C@H](CCCNC(=N)N)NC(=O)[C@H](Cc1c[nH]c2ccccc12)NC(=O)[C@@H](N)CCCNC(=N)N)C(N)=O | Candida albicans | broth microdilution | CGMCC 2.209, RPMI 1640-MOPS | 48 h, 30 °C, added: MgCl2 1 mM |  | MIC | 8 µM |
| CC(C)(C)OCC1NC(=O)C(C(=O)NC(C(=O)NC2C(=O)N3C2SC(C)(C)C3C(=O)O)c2ccccc2)=C1O (stereo not shown) | Escherichia coli | broth microdilution | Keio mutant JW5086-3 | 18 h, ferrienterobactin permease gene |  | MIC | 25 µg/mL |
| CC[C@H](C)[C@H](NC(=O)[C@H](CCCCN)NC(=O)[C@@H](NC(=O)[C@H](Cc1ccc(O)cc1)NC(=O)[C@H](CCCCN)NC(=O)[C@H](CCCCN)NC(=O)CNC(=O)[C@H](CCCCN)NC(=O)[C@@H](NC(=O)[C@H](C)NC(=O)[C@H](CC(C)C)NC(=O)[C@H](Cc1c[nH]c2ccccc12)NC(=O)CNC(=O)[C@@H](NC(=O)[C@H](Cc1ccccc1)NC(=O)[C@H](CCCCN)NC(=O)[C@H](CC(C)C)NC(=O)[C@H](Cc1ccccc1)NC(=O)[C@H](C)NC(=O)CNC(=O)[C@@H](N)CCSC)C(C)C)[C@@H](C)O)C(C)C)C(=O)N[C@@H](C)C(=O)N[C@@H](Cc1c[nH]c2ccccc12)C(=O)N[C@@H](CC(=O)O)C(=O)N[C@@H](Cc1c[nH]cn1)C(=O)N[C@@H](CCCCN)C(=O)NCC(=O)N[C@H](C(=O)N[C@H](C(=O)N[C@@H](CCSC)C(=O)N[C@@H](CCCCN)C(=O)N[C@@H](Cc1c[nH]c2ccccc12)C(=O)N[C@@H](CC(C)C)C(=O)N[C@@H](CC(N)=O)C(=O)N[C@@H](C)C(=O)NCC(=O)N[C@@H](CCC(N)=O)C(=O)N[C@H](C(=O)N[C@@H](Cc1ccccc1)C(=O)N[C@H](C(=O)N[C@@H](Cc1c[nH]c2ccccc12)C(=O)N[C@H](C(=O)N[C@@H](Cc1ccc(O)cc1)C(=O)N[C@@H](CCC(=O)O)C(=O)N[C@@H](CCC(N)=O)C(=O)N[C@H](C(=O)N[C@@H](CCCCN)C(=O)N[C@@H](CCCCN)C(=O)N[C@@H](CC(C)C)C(=O)N[C@@H](Cc1c[nH]c2ccccc12)C(=O)N[C@H](C(=O)O)[C@@H](C)O)[C@@H](C)CC)C(C)C)[C@@H](C)O)[C@@H](C)O)[C@@H](C)CC)[C@@H](C)O | Corynebacterium ulcerans |  |  | 37 °C, non-formylated synthetic |  | MIC | 31.3 µg/mL |
| C[C@H]1CN(c2n[nH]c3nc(N[C@H]4CC[C@H](NS(=O)(=O)CCC(F)(F)F)CC4)ncc23)CCO1 | Non-selective voltage-gated ion channel VDAC2 (Homo sapiens, UniProt P45880) | Kinobeads competition, refers to: VDAC2 |  | 0.8 µM, unit not given | baseline: vehicle | remaining binding | 1.14 |
| CC[C@H](C)[C@H](NC(=O)CN)C(=O)NCC(=O)N[C@@H](C)C(=O)N[C@H](C(=O)N[C@@H](CC(C)C)C(=O)N[C@@H](CCCCN)C(=O)N[C@H](C(=O)N[C@@H](CC(C)C)C(=O)N[C@H](C(=O)N[C@H](C(=O)NCC(=O)N[C@@H](CC(C)C)C(=O)N1CCC[C@H]1C(=O)N[C@@H](C)C(=O)N[C@@H](CC(C)C)C(=O)N[C@H](C(=O)N[C@@H](CO)C(=O)N[C@@H](Cc1c[nH]c2ccccc12)C(=O)N[C@H](C(=O)N[C@@H](CCCCN)C(=O)N[C@@H](CCCNC(=N)N)C(=O)N[C@@H](CCCCN)C(=O)N[C@@H](CCCNC(=N)N)C(=O)N[C@@H](CCC(N)=O)C(=O)N[C@@H](CCC(N)=O)C(N)=O)[C@@H](C)CC)[C@@H](C)CC)[C@@H](C)O)[C@@H](C)O)C(C)C)C(C)C | Candida albicans | broth microdilution | 56214, RPMI 1640-MOPS | 48 h, 30 °C |  | MIC | 8 µM |
| CCCCCCCCCCCCCCCC(=O)NS(=O)(=O)OCC | Streptococcus pneumoniae |  |  |  |  | MIC | 12.5 µg/mL |
| OC(Cn1cncn1)(Cn1cncn1)c1ccc(F)cc1F | Candida albicans | broth microdilution | CGMCC 2.209, RPMI 1640-MOPS | 48 h, 30 °C |  | MIC | 8 µM |
| CCCCCC/C=C\CCCCCCCCCC(=O)CP(=O)(O)O | Streptococcus pneumoniae |  |  |  |  | MIC | 200 µg/mL |
| CC1(C)SC2C(NC(=O)C(NC(=O)C3=C(O)C(c4ccccc4)NC3=O)c3ccccc3)C(=O)N2C1C(=O)O (stereo not shown) | Escherichia coli | broth microdilution | ATCC 35218, low-level TEM-1 | no clavulanic acid |  | MIC | > 200 µg/mL |
| CC(C)C[C@H](NC(=O)[C@H](CCCNC(=N)N)NC(=O)[C@H](Cc1c[nH]c2ccccc12)NC(=O)[C@H](CCCNC(=N)N)NC(=O)[C@H](Cc1c[nH]c2ccccc12)NC(=O)[C@H](Cc1c[nH]c2ccccc12)NC(=O)[C@H](Cc1c[nH]c2ccccc12)NC(=O)[C@H](CCCNC(=N)N)NC(=O)[C@H](Cc1c[nH]c2ccccc12)NC(=O)[C@@H](N)CCCNC(=N)N)C(N)=O | Candida albicans |  | CGMCC 2.209 | no added salts |  | MIC | 8 µM |
| N=C(N)c1ccc(OCc2cc(Br)cc(COc3ccc(C(=N)N)cc3)c2)cc1 | Escherichia coli |  | BW25113 mcr-1 | compound alone |  | MIC | > 50 µg/mL |
| O=C(O)c1cccc(C(=O)O)n1 | Providencia stuartii |  | NDM-1 producer | 32 µg/mL, MIC of meropenem, added: meropenem |  | MIC | 0.25 µg/mL |
| CC(C)C[C@H](NC(=O)[C@@H](NC(=O)[C@H](CCCNC(=N)N)NC(=O)[C@H](CCC(N)=O)NC(=O)[C@H](Cc1ccccc1)NC(=O)[C@H](Cc1ccc(O)cc1)NC(=O)[C@H](CC(N)=O)NC(=O)[C@H](Cc1c[nH]c2ccccc12)NC(=O)[C@@H](NC(=O)[C@H](CCCNC(=N)N)NC(=O)[C@H](CCCCN)NC(=O)[C@@H](N)Cc1ccccc1)C(C)C)C(C)C)C(=O)N[C@H](C(=O)N[C@@H](CCCCN)C(=O)N[C@@H](CCCCN)C(=O)N[C@@H](Cc1ccc(O)cc1)C(=O)N[C@@H](C)C(N)=O)C(C)C | Salmonella typhimurium | broth dilution | SL1344 |  |  | MIC | 6.3 µM |
| CC1NC(=O)C(C(=O)NC(C(=O)NC2C(=O)N3C2SC(C)(C)C3C(=O)O)c2ccccc2)=C1O (stereo not shown) | Escherichia coli | broth microdilution | isolate IU 356 A, KPC-3, VIM-1, TEM | no clavulanic acid |  | MIC | > 200 µg/mL |
| CN[C@H](CC(C)C)C(=O)N[C@H]1C(=O)N[C@@H](CC(N)=O)C(=O)N[C@H]2C(=O)N[C@H]3C(=O)N[C@H](C(=O)N[C@H](C(=O)O)c4cc(O)cc(O)c4-c4cc3ccc4O)[C@H](O)c3ccc(c(Cl)c3)Oc3cc2cc(c3O[C@@H]2O[C@H](CO)[C@@H](O)[C@H](O)[C@H]2O[C@H]2C[C@](C)(N)[C@H](O)[C@H](C)O2)Oc2ccc(cc2Cl)[C@H]1O | Clostridioides difficile | agar dilution anaerobic | 3581 | 48 h |  | MIC | 1 µg/mL |

Repeated from above:
| SMILES | tested on | assay | system | conditions | how to read | endpoint | result |
| --- | --- | --- | --- | --- | --- | --- | --- |
| CC1(C)SC2C(NC(=O)C(NC(=O)C3=C(O)C(Cc4ccc(F)cc4)NC3=O)c3ccccc3)C(=O)N2C1C(=O)O (stereo not shown) | Escherichia coli | broth microdilution | Keio mutant JW0146-2 | 18 h, ferric hydroxamate uptake gene |  | MIC | 25 µg/mL |
